Measurements of several laboratories.
Every numbered part comes from another study and shows a few of its results, in no order.

Set 1 — method: RNA Bind-n-Seq; form: RNA; medium: in vitro; tested at: 365 nM; relative to: no-protein control; reading: higher = stronger binding
Target: RNA binding protein fox-1 homolog 2, RRM domain, GST-SBP tag (RBFOX2, Homo sapiens, UniProt O43251-10, residues 100-194)
Notes: natural RNA segment, single round, ends assumed
Shared flanks, not repeated: GGGAGUUCUACAGUCCGACGAUC … UGGAAUUCUCGGGUGCCAA
Construct (chain): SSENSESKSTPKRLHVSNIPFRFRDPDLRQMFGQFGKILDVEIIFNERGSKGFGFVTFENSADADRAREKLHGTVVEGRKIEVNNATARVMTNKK
Strand | RBNS enrichment (R)
CCAUAAUGCAUCAUUUGAAAAACAAAAACACCUGCCUACUUUACAUUAACAUGGUAAAGAUUGUAUGAAAUACCUGUUUUUCAAAAAAAUAAAAAUAAAGGUUCAAGUCU | 0.794
UUGAUACCCUUAAAAAUUAUUCAUAGAUCUGGCUGCUCUGUACUACUGGAUGGGUGGAAUAGGGAAGCAGAUCACUUUUGCAUACAAAAACUCUUUCAAACCCAAAAUAU | 0.477
AAAAGCGCUCAAGUUCAUGCUGACCAAUCUCAAGUGGGGUCUUGCCUGGGUGUCCUCACAGUUCUAUAACAAGUGACUUGCUCCUUAGGGGAUGUUUGCCUUUAAGGUUU | 1.62
UGAGUAAAUGUAUCCAAGAGACACAUCUAGUAGGGAGUUCAGUUUUAAGAUAGUUUGGCUCCAGAGUUGGUGUUUUUAACCACUGUGUUUUCUCACUUUUGUUCAGUGUU | 0.932
ACUGACAGGUACCUUAGUUCUGUGUUCAUGUGGCCCUGACCCUUCCUUCAACCACACCUGGUCUCUUAGAACAUUGUGAACCUAACCUGCACUUGUGUCUCUCAUUUCCU | 0.439
CCAUUCUUCUGACCCUCUAGAUAAGCGUAGCCUACAACCCAGUGCCGUAAGUUUCCAAGAUUCAAGAAGUGUAUCAACCCAGGCAAUAUCUCAGGAUAUGGAAGUUUCUG | 0.26
UGGAAGUAUUUUUUCACAUUUUCUUUGUAUAAAAUUUGUAUUAAACUUAAAUAUCUUUUUGAUGGUGGUGUUUCUUUGUGACUGAGCCAGUAGACUCACACUAUAUGCUU | 0.918
CAGAUUGGAAGAAUGGACUCUAAGGAGGCUGUUUGCACAAGGCUCUCCACUCACCAGCUGUUGAGUCUGUGCGGAAGACAGGAUCUUAUUACUUCAAUGGCAGCAGCGAU | 0.252
AUGGUGAUACAUUCUAGCCUUAAGACAUUUGAAUUGCCGGUUGUUGAGGUGAAUUUUGUUUGUCAUACAUGGAACCAUUUUAGUCCCAUUUGACUCACUUCAGACCAUCU | 0.493
GAGUAGAGAGCAAGGGAAGUGGUUCUUAGAUGGUGAUCUGGGAUUAGGCCCUCAAGACCCUUUUGGGUUUCUGCCCUGCCCACCCUCUGGAGAAGGUGGGCACUGGAUUA | 0.413
UCUUUGGAUUAAAAGUCAUAAACUUAAAAAAAAAAAUCUCUUUAUUCAAAAAGAUAGUUAAAUCAUGCUACUGAGCCUAUGAUGUCGUUGAUGUUUGGUUCGGUAUUCUU | 0.401
GUGCAAUGGAUAUCUGUGAUGGGCUCUUCCGCCAGAAUGGUGGCUCUGGCUAUGUGCUGAAGCCAGAAUUCCUGAGAGAUACCCAGAGUUCAUUCAAUCCUGAGAGGCCA | 0.431

Set 2 — method: competition protein-binding microarray; form: double-stranded DNA, one strand shown; medium: in vitro; tested at: 2 µM; with: Cbf1 competitor, 0.05 µM; reading: higher = stronger binding; shared flanks, not repeated: … GTCTTGATTCGCTTGACGCTGCTG
Target: Phosphate system positive regulatory protein PHO4, full length, GST-tagged (PHO4, Saccharomyces cerevisiae, UniProt P07270, residues 1-312)
Notes: whole 60-bp probe, lowest competitor level
Construct (chain): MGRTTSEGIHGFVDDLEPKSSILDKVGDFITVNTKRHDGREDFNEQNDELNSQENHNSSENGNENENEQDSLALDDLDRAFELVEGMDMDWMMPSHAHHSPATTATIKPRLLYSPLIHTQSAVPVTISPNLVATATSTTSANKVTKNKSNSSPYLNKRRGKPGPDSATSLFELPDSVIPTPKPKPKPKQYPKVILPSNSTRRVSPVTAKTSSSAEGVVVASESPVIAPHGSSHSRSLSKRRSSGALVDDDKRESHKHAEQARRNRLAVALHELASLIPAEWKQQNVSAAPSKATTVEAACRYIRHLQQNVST
Strand | fluorescence intensity [a.u.]
TTTTCTGACCGCCAGTTCGTGCGATTAGTTCTGTGG | 6710
TGTAATAGTTGCCATCACGTCGACAGCTTCAATGTT | 4880
CATACCCAACCTTGTCTAGTGGGTGAAGATATTTGT | 4020
TTCAACGACAGAGGCCTTGTGACGCCCTGGAGCTTG | 3050
AAGATTACCAATCACCACGTTATTTGAGAGAGGATG | 9870
CCGCCCTTCAAAGTCCTCGTGCTGTGTATCAATTCC | 12000
TGCGCAACAACTTGGTTAGTGGGTGTATGTCTAGAA | 4810
AGCAAGAAAACCCATCACGTGTGGATTCGGACCAAA | 17100
GGGATAGCACTCTGAAACGTGTTGAAGTCTCCTTCC | 11500
GTCTTGTCTCATTGTGTAGTGGGTGTCCCCACTTCA | 5550
CTTTCCCGATCTTGGTCAGTGGGTGTAGCACATTTG | 4840
CACCACTTCTCAAAGAACGTGCAAATAACTCTTCCA | 14500
GGTGAAGCCGGTATCGTCGTGCCGACCGCAGACTAC | 7850
CGTCCTAGTGATTTTCACGTGCCCTCCATGAGGAAG | 15600
ATTTTCGAGGGTTACGTCGTGACTCGTATGCTTTCT | 5490
TGTCCAAGTCTGATCCATGTGTCTTGACCTATATGT | 8460
CGGGGTTAAGTTTTTCACGTGTTTTGCTTGCAGCAG | 13100
CAGGAAAAGTCTTTGGTGTTTCCTTCTTTGTACATT | 2550
ACTTTATACCACCACCACATGCCATACTCACCCTCA | 10900

Set 3 — method: protein binding microarray; form: double-stranded DNA, one strand shown; medium: in vitro; tested at: not given; relative to: not given; reading: higher = stronger binding
Target: Histone acetyltransferase KAT6A, both winged helices, GST fusion (KAT6A, Homo sapiens, UniProt Q92794, residues 1-181)
Notes: 8-mer, flanks averaged, mean of 2 arrays, mostly near background
Target sequence (chain): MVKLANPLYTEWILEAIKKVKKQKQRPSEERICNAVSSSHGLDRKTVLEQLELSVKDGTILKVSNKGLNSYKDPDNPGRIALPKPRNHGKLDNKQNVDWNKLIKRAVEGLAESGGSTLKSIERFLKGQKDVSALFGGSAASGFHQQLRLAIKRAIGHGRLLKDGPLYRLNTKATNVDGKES
Strand | E-score
ACCGCCAA | 0.0368
GTAACCAA | -0.0752
GAGGCCGA | 0.0838
GTATAAAA | 0.186
ACCACGGC | 0.176
ATAACTAT | -0.117
AATTTACG | 0.0672
CATTGATA | 0.0328
AACTAGGA | -0.117
AAAACCGT | 0.0238
CCGAAAAG | -0.102
ACGCAACC | 0.106
CCGCCAGG | 0.133
CCTAGTTC | -0.223
AGCTTTCA | -0.105
CCAAATCA | -0.0369
CGGGGTTC | 0.218
AAAGGCGG | 0.183
ATCTCTCG | -0.0561
CCCTGCGA | -0.0824
AGCCTATA | -0.145
AAATTTAG | -0.0639

Set 4 — method: RNA Bind-n-Seq; form: RNA; medium: in vitro; tested at: 200 nM; notes: whole 134-nt RNA, ends assumed; with: 150 mM LiCl; relative to: input library; reading: higher = stronger binding; each molecule: 7-deaza-guanosine replaces G
Target: Fragile X messenger ribonucleoprotein 1, C-terminal low-complexity region (Fmr1, Mus musculus, UniProt P35922)
Shared flanks, not repeated: GGGAGUUCUACAGUCCGACGAUC … UGGAAUUCUCGGGUGUCAAGG
Strand | log2 enrichment
CUGUGCUACACAUCGUAUGUACCGAAUCGGGGUUUUUGGGGUUUUUUUGGGGUUUUUGGGGAAAGUAUUAUGUUACGCCGUUCGGAUCUG | 1.78
GUCCUGUGCUACACAUCGUAUGUACCGAAUCGGGUUUUUUUGGGUUUGGGAAAAAGGGAAAGUAUUAUGUUACGCCGUUCGGAUCUGCAC | -1.74
UCCUGUGCUACACAUCGUAUGUACCGAAUCGGGAAAAAAAGGGUUUUUUUGGGUUUGGGAAAGUAUUAUGUUACGCCGUUCGGAUCUGCA | -2.34
CACAGACAACACGCACCCACACAGACACAGAGGGAAGGGGUUGGGAUGGGGACAGGGUGCACAAAAGGGCGGGGUAGGACCCCAGCCCCU | -0.168
GCAGGAAGUAAAAACAAAUGGAAAUGCUUCGGAUAGUGGCAGGGGUGGGGGUUGCUAAGGAAACGGUGGGAUGGGAGUGGGUAAAGAGUU | 1.42
UGUUUAAUAAACGUGAAGAUGUCUCGCAGUCCUGAUGCGAAGGAAGACCCUGUGGAGUGCCCUCUUUGCAUGGAGCCCUUGGAGAUAGAU | -1.62
UGGCCAAUAGCAUCCUUUUCCAGUCUUCCGGUCUGACAAAUGGAAUAAUAGAAGAAAAGGACAUACAUGAAGAAUUGCCAAAACGGAAAG | -1.79
UCUGCUAAAGAGAAAGGAAAAUUUGAAGAUAUGGCAAAAGCGGACAAGGCCCGUUAUGAAAGAGAAAUGAAAACCUAUAUCCCUCCCAAA | 1.52
UCCUGUGCUACACAUCGUAUGUACCGAAUCGGGGAAAAAAAGGGGAAAAAGGGGUGGGGAAAGUAUUAUGUUACGCCGUUCGGAUCUGCA | -0.706
UGUUGGGCUUCGAUCCCAGGUGGAUGAUGAUGCCUUCCUACAUGGACCCACGUAUCACGCCCACUCGGACCCCGGUGGACUUCUACCCCU | -0.0444
UGGAUUUUCAAGACACGAAUGCUCGGAGUCUGGCAGAAAGGAAGAGAGAAGAGGAGAAGCAGAAGCACUUGGAUAAAAUUUAUCAAGAAA | -1.18

Set 5 — method: aptamer microarray, sandwich; form: DNA with 2'F-ANA; medium: in vitro; tested at: 200 nM; with: Cy3 exosite-II aptamer, 400 nM; reading: higher = stronger binding; strand: GGTTGGTGTGGTTGG
Target: Prothrombin, mature alpha-thrombin (F2, Homo sapiens, UniProt P00734)
Notes: whole 15-mer aptamer, many near background
Modification | mean fluorescence intensity
2'F-ANA at 1 3 4 8 9 10 12 13 15 | 115 a.u.
2'F-ANA at 2 3 5 6 9 11 12 13 14 15 | 54.2 a.u.
2'F-ANA at 1 3 4 6 9 10 11 15 | 70 a.u.
2'F-ANA at 2 4 5 6 10 11 13 14 | 50.5 a.u.
2'F-ANA at 1 3 4 9 12 13 14 | 67.5 a.u.
2'F-ANA at 4 5 7 11 14 | 44.8 a.u.
2'F-ANA at 1 2 3 4 6 13 14 | 67.4 a.u.
2'F-ANA at 2 8 12 13 14 15 | 195 a.u.
2'F-ANA at 1 7 8 9 11 12 13 15 | 291 a.u.
2'F-ANA at 2 3 5 9 10 11 12 15 | 61.3 a.u.
2'F-ANA at 1 3 7 8 10 14 | 60.1 a.u.
2'F-ANA at 4 6 8 10 12 15 | 98.6 a.u.
2'F-ANA at 4 5 6 7 8 9 11 12 13 15 | 75 a.u.
2'F-ANA at 1 6 7 12 13 | 267 a.u.
2'F-ANA at 1 6 8 13 14 15 | 124 a.u.
2'F-ANA at 1 2 4 5 7 8 9 13 15 | 64.4 a.u.
2'F-ANA at 4 5 10 12 13 15 | 84.7 a.u.
2'F-ANA at 1 2 3 4 5 6 7 11 12 13 | 78.1 a.u.
2'F-ANA at 2 3 5 7 8 9 12 14 | 72.3 a.u.
